Measured values gathered from unrelated publications.
Each numbered part is a random draw from the data of one study; scales do not carry over between parts.

Block 1 — method: protein-binding microarray; molecule type: double-stranded DNA, one strand shown; sample: in vitro; concentration: 0.8 µM; notes: whole 60-bp probe, no competitor; reading: higher = stronger binding; all sequences stand within: … GTCTTGATTCGCTTGACGCTGCTG
Target: Centromere-binding protein 1, full length, N-terminal tag (CBF1, Saccharomyces cerevisiae, UniProt P17106, residues 1-351)
Chain of UniProt P17106 (whole entry, looked up): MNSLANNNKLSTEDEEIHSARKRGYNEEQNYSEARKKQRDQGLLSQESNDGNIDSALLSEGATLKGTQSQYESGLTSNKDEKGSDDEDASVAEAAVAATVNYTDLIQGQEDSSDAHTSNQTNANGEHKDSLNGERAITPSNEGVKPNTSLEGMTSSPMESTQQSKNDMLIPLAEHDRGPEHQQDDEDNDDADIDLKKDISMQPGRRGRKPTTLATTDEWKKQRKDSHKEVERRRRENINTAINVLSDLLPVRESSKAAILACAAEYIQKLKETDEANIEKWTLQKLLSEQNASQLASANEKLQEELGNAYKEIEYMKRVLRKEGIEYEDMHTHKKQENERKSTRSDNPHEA
| Strand | fluorescence intensity |
| --- | --- |
| CTAAGAGTTTCTCATCACCATCCCCATATCATTTTC | 545 a.u. |
| CTATTTAAAAAGCGTTGCGTGATGTTTGGGTGCTTC | 563 a.u. |
| TGTACGAAGCTATCAGACGTGAGTATAGTAGTTAGG | 541 a.u. |
| CTATATTTATGATAGCATCAGATTCATTTCCCATTC | 490 a.u. |
| GAATGGAAATGCGCAGGTGAGCTGATTGATTAATAG | 632 a.u. |
| GAAGTATATTGGCACCTGAGCAAATCCAACAAATAG | 845 a.u. |
| CTAATTTAACAATATGGTGAATTAAGTGTTGATTTC | 517 a.u. |
| GAAGAAGCTTCTCTCCACATGTCCTTTATATTTTAG | 592 a.u. |
| CTAGGAAGGTATCATCACGTAAACTAAAACGCATTC | 572 a.u. |
| CCTAACTACTATAATCACGTGGTATAGCTTCGTACA | 12200 a.u. |
| CTAGTAGTATATTATCACGTGCGGTGTAAGAGGTTC | 8970 a.u. |
| GAATTCAATTTCGACTGCATGATGCTTTTCTTATAG | 576 a.u. |
| GAATCATCATTTAATCATGATGATAATATTGATTAG | 547 a.u. |
| CTATTTGTTTCTGAGATCGTGACCTTAGATTGTTTC | 1610 a.u. |
| GAATTTAAAAAGCTGCACGTGACTAACTAGAACTAG | 18600 a.u. |
| CTAGCCCATTAATACCGGGTGACATAGTCCCACTTC | 475 a.u. |
| CTAGCTGGTAATCGTGGTGACTCCAGAACCAAATTC | 520 a.u. |
| CTAGATGAGTCGAGTCATCACCTTCCTCTAAACTTC | 508 a.u. |
| GAACAGACGTAAAACCGCATGACACCAAGCCTATAG | 577 a.u. |
| CTAAAACATATAGTCATGGTGGTGTTGACATGTTTC | 523 a.u. |
| GAAAAAACACACGGTCACCTTTCTTATTATGGATAG | 574 a.u. |
| TGTACGAAGCTATGCCACGGGCGTATAGTAGTTAGG | 518 a.u. |

Block 2 — method: RNA Bind-n-Seq; molecule type: RNA; sample: in vitro; concentration: 365 nM; relative to: no-protein control; reading: higher = stronger binding
Target: RNA binding protein fox-1 homolog 2, RRM domain, GST-SBP tag (RBFOX2, Homo sapiens, UniProt O43251-10, residues 100-194)
Notes: natural RNA segment, single round, ends assumed
All sequences stand within: GGGAGUUCUACAGUCCGACGAUC … UGGAAUUCUCGGGUGCCAA
Construct (chain): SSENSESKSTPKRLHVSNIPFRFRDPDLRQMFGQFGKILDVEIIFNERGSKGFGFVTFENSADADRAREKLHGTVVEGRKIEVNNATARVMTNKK
| Strand | RBNS enrichment (R) |
| --- | --- |
| CUUCACUACUUCUAUGGUAGGGUUGUCUGAAAUUCCCUUUCAGGCUGUGGGUACUGGUCUUGGGUUCUAGUCAUAAGGGGUUCCUUAUAAGGAGCAGGCGGAGGGGAGUA | 0.458 |
| UCACCUAUCCUCAGGCUCACAGUGGAAAUGUCCAGGGACAGGGCUGUUAGAAUGAGCUAAGGGAGACUGUUUUGCGUCCUGAGUUUCUAUUUCAUUGGAUCAGGAAAUCA | 0.314 |
| AAAUGUCUGGAAGGAAACACUGAAAUAAGAAUACAACAUUUCGGUGAAGAGCUGGAAACUUAAAAAAUUAUCAAAAGGAAUUUUGGUAUCAUCUUCAGAGAAAAAAUAAA | 0.612 |
| CAAGCUUUUGUGUUUAUUAUCCUCAUUUUUACUGAACAUUGUUAGUUUUGGGGUAAUGGAAACCCACUUUUUCAUUGUAAUGACUUUGGGGGCUUUUGUUAGUAAGGGUG | 0.33 |
| UUCAAACAAAAUUGGCGUAACUGUUUCAUCUUUAAGUAGCAGUUUGCUGCCAUUUGUAUUCAGCUGAAGAAGUCACUAUUGUGUAUAUACUCAAGGCUUCUUAUUUUUCU | 0.449 |
| CCAGCGUUGUCUCACUCUGAUCCCUACCCUGAGCCUGCUGAACUGCCCUCAGAGUGCUCAUAUGGGGAGGGGGAUAUCUACUGUGGCUUCCAAAAGUCCCCACUAGUUGG | 0.358 |
| CCGUGGAUGAGUUUAGUGUACAGACUUGUAAACAGCUGCCCCCUCUCUGCUCAGUCUAGUUCCCAGAUCCUUUUCUUUUCUUUUUAAUUGCUCAUUUGUAAAAUUGUCCU | 0.838 |
| GUUUGUUUGCAAAUAUCAAACAUUGUUAUGCAAGAAAUUAUUAAUUACAAAAUGAAGAUUUAUACCAUUGUGGUUUAAGCUGUACUGAACUAAAUCUGUGGAAUGCAUUG | 0.597 |
| CGGGAUAGAAUGGCUGUCCAGUCUAAGCUCAGGGCAGCCUCUUCAACCACUGUUGGCCCAGCCUGGCUUGUGAGGAAACCAGCCCUGUCCCUCAGUAUUGAACUUGGCUG | 0.306 |
| UGUAUAGUGGCUAACUUAAGGGGAGUGGGUGACCCUGACACUUCCAGGCACUGUGCCCAGGGUUUGGGUUUUAAAUUAUUGACUUUGUACAGUCUGCUUGUGGGCUCUGA | 1.16 |
| CAUUCUUUUGUGAGUUUUGCAGCAGUCUUGAAUAAUACAGAUUAUAACUACUGAAAGGGGAACCUUCGUCUUUUUAAAUGUGUUAUUUCACAUUACAAUAAUAUGUGUAG | 0.406 |
| AUACGUUUACAGAGGAAACUUGAUCAUUUCCAACCAUCUUCCCCUACCCCACCCUCUCGCCCCUGGCACCUGUCUUCUAUUUGUCGAGUUCACUGUUGAUCCUGUUGUAG | 0.668 |

Block 3 — method: RNA Bind-n-Seq; molecule type: RNA; sample: in vitro; concentration: 100 nM; relative to: input RNA pool; reading: higher = stronger binding
Target: RING finger protein unkempt homolog, zinc fingers 1-6, SBP tag (UNK, Homo sapiens, UniProt Q9C0B0, residues 30-357)
Chain of UniProt Q9C0B0 (30-357, looked up): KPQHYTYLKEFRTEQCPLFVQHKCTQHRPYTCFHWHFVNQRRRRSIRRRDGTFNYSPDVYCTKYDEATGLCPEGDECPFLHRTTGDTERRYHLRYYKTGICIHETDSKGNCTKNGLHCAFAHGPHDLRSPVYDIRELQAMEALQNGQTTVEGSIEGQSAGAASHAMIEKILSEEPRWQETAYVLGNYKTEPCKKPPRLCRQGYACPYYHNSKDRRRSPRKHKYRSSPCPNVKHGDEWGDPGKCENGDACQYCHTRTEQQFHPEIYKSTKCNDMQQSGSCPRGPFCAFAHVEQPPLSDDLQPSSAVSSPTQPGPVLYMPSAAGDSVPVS
Notes: RNA with constant flanks, vertebrate orthologous sites, ends assumed
All sequences stand within: GGGAGUUCUACAGUCCGACGAUC … CAACAGAGGAUUGAGCAUCA
| Strand | bound/input enrichment |
| --- | --- |
| GUGGCACCCCCUGUGAGAGGGAGUAGGGGGAGCUCAGGAUGACCCUCAGCUGUUCCAAUCCAGUAUUUUUUUCUUUUUUAAAAAAUUACUGUAUUUAUUAUGACGAUGGUGACUCCCCAG | 0.458 ratio |
| GUCAUCUGACUGGAUGAAGACAGUUCCGAGUUACAACCAAACAAAUAGCUCCAUGGACUUUAGAAAUUAUAUGAUGAGAGAUGAAACUCUGGAACCACUGCCCAAAAACUGGGAAAUGGC | 1.17 ratio |
| GCAAAGAAAAAGCAGCCCUUCUCCCAGCCCCUUUUUCACUAGGAGAUACAAACGUUACCAUAGAAGAGCAAUUAAACUCAAUAAAUUUAUCUUUUCAGGAUGAUCCAGACUCCAGUACCA | 1.95 ratio |
| CUGAAAUUACUGCAAAAGAGCCAAGCAGUAGUGUUGUUUUUUUGUAAAUGUAAAAAUGAUUAGAACUAGACUGUUUCCUUCAUUUUAAAAAUAAAAAAUACCUCAGUGCUAUAUAAUGUU | 0.383 ratio |
| CGGCCGACUCGCUCAUCGGGAGGGCGGCACACAUCGCUGUGCUCGACUCGGAAAUAUUCCUAGAGAAGUUCUUCCUGGUUGCUGCCCUCAAGUAUUUCCAGUAGAAUAAGAGCAUUGCUA | 0.216 ratio |
| GUUAGGUCAUGACCCUUAUAGGCUAGGUCAUGAUGCUUAUAGAUUAGGGCAAGACCCUUAUAGAUUAGGCCAUGAUCCCUACAGACUAACUCCUGAUCCCUAUAGGAUGUCACCUAGACC | 0.544 ratio |
| GCAAUGAAAAAGCAUCCCUUCUCCCAGCCCCCUUUUCACUAGGAGAUGCAAAGGUUACCAUAGAAGAGCAAUUAAACUCAAUAAAUUUAUCUUUUCAGGAUGAUCCAGACUCCAGUACCA | 0.84 ratio |
| UACUAGCGUCAUACCAGCAUAUUAACUAGUCAUAUGUGCACAGCUUAAAAAUUAACAGUCUAGUUAUAUUUUUUAAUUUAACAACUGCUUUUUCCCAAGACUGAAAAAGAAGCUACAAUU | 0.857 ratio |
| GCCAUCUGAUUGGAUAAAGACCGUCCCAAGUUACAACCAAACAAACAGUUCCAUGGACUUUAGAAAUUAUAUGAUGCGAGAUGAAAAUCUGGAACCACUGCCCAAAAACUGGGAAAUGGC | 0.719 ratio |
| ACUACCCCAGUCGUACUGUGUUGGGUUGGCAUUGUACAGAAAUUAACAGCCAUAUUGGUCUAGAAAUGUUAAACACAAUUUUUUCCAUUUGUACAGGGGUAACGCGCUGUAUUAAAUGUG | 0.516 ratio |
| AUAAGAACUCUUGCAGUCUUAGAUGUUAUAAAAAAUAUAUAUCUGAAUUGUAAGAGUUGUUAGCACAGUUUUUUUUUGUUUGUUUGUUUUUAAACACUUGUUUUGGGUACAAGGCAUUUC | 0.509 ratio |

Block 4 — method: universal PBM; molecule type: double-stranded DNA, one strand shown; sample: in vitro; concentration: 600 nM; reading: higher = stronger binding
Target: Sal-like protein 4, full length isoform A (SALL4, Homo sapiens, UniProt Q9UJQ4, residues 1-1053)
Chain of UniProt Q9UJQ4 (whole entry, looked up): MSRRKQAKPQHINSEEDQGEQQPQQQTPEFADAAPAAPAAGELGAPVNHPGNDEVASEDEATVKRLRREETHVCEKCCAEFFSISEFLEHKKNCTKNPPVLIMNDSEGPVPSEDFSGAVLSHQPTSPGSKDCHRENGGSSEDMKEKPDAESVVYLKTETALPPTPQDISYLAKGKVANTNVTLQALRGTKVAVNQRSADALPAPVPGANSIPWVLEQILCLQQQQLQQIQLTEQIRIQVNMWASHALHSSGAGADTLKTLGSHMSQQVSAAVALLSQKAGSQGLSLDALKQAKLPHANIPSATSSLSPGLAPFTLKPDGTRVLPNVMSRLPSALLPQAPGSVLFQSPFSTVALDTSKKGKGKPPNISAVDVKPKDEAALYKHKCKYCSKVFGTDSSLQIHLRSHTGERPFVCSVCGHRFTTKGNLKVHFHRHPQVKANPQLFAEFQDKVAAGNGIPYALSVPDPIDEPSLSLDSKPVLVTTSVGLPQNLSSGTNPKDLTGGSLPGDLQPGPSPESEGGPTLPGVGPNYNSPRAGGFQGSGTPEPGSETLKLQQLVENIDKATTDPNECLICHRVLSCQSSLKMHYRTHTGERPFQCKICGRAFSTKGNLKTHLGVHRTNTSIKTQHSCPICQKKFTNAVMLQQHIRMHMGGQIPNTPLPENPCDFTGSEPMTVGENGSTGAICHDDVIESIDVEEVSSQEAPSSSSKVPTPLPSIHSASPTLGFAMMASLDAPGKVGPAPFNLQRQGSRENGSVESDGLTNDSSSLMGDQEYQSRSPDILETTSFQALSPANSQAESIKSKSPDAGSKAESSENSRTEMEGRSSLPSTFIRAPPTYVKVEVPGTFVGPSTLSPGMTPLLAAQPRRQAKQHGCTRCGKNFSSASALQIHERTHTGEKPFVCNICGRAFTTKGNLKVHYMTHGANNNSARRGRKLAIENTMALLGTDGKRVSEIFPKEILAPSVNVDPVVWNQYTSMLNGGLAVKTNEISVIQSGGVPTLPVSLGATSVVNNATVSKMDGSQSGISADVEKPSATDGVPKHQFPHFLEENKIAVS
Notes: 8-mer, flanks averaged, mean of replicates
| Strand | E-score |
| --- | --- |
| AGACATCT | 0.0809 |
| GCCAGAGA | -0.168 |
| CAAGTTTC | 0.122 |
| CGTTTATC | 0.234 |
| CGGCGCGC | -0.253 |
| CCGTGGGA | -0.312 |
| CCATACAA | 0.152 |
| GTAGGTTA | 0.0618 |
| CAACAGAC | 0.0103 |
| GACACCCC | -0.339 |
| AACGGTCC | -0.218 |
| CGGAGGGA | -0.27 |
| AGTGCAAT | 0.168 |
| CCGCACTA | -0.236 |
| AGGACACT | -0.204 |
| AAACATAT | 0.374 |
| AATGAGGA | 0.033 |
| ACCCTAGG | -0.117 |
| AGTACTAG | 0.0793 |
| GATACGCA | 0.0231 |
| CCTGAGCC | -0.28 |
| AACTTATA | 0.307 |
| ATATAGCC | 0.284 |
| ATTAATCC | 0.295 |

For quick reference, copied from above (block 3):
| Strand | bound/input enrichment |
| --- | --- |
| GUGGCACCCCCUGUGAGAGGGAGUAGGGGGAGCUCAGGAUGACCCUCAGCUGUUCCAAUCCAGUAUUUUUUUCUUUUUUAAAAAAUUACUGUAUUUAUUAUGACGAUGGUGACUCCCCAG | 0.458 ratio |
| GUCAUCUGACUGGAUGAAGACAGUUCCGAGUUACAACCAAACAAAUAGCUCCAUGGACUUUAGAAAUUAUAUGAUGAGAGAUGAAACUCUGGAACCACUGCCCAAAAACUGGGAAAUGGC | 1.17 ratio |
| GCAAAGAAAAAGCAGCCCUUCUCCCAGCCCCUUUUUCACUAGGAGAUACAAACGUUACCAUAGAAGAGCAAUUAAACUCAAUAAAUUUAUCUUUUCAGGAUGAUCCAGACUCCAGUACCA | 1.95 ratio |
| CUGAAAUUACUGCAAAAGAGCCAAGCAGUAGUGUUGUUUUUUUGUAAAUGUAAAAAUGAUUAGAACUAGACUGUUUCCUUCAUUUUAAAAAUAAAAAAUACCUCAGUGCUAUAUAAUGUU | 0.383 ratio |
| CGGCCGACUCGCUCAUCGGGAGGGCGGCACACAUCGCUGUGCUCGACUCGGAAAUAUUCCUAGAGAAGUUCUUCCUGGUUGCUGCCCUCAAGUAUUUCCAGUAGAAUAAGAGCAUUGCUA | 0.216 ratio |
| GUUAGGUCAUGACCCUUAUAGGCUAGGUCAUGAUGCUUAUAGAUUAGGGCAAGACCCUUAUAGAUUAGGCCAUGAUCCCUACAGACUAACUCCUGAUCCCUAUAGGAUGUCACCUAGACC | 0.544 ratio |
| GCAAUGAAAAAGCAUCCCUUCUCCCAGCCCCCUUUUCACUAGGAGAUGCAAAGGUUACCAUAGAAGAGCAAUUAAACUCAAUAAAUUUAUCUUUUCAGGAUGAUCCAGACUCCAGUACCA | 0.84 ratio |
| UACUAGCGUCAUACCAGCAUAUUAACUAGUCAUAUGUGCACAGCUUAAAAAUUAACAGUCUAGUUAUAUUUUUUAAUUUAACAACUGCUUUUUCCCAAGACUGAAAAAGAAGCUACAAUU | 0.857 ratio |
| GCCAUCUGAUUGGAUAAAGACCGUCCCAAGUUACAACCAAACAAACAGUUCCAUGGACUUUAGAAAUUAUAUGAUGCGAGAUGAAAAUCUGGAACCACUGCCCAAAAACUGGGAAAUGGC | 0.719 ratio |
